Published values from different studies.
Each line is one published result; not all experiments were run side by side. pEC50, pIC50: −log10 of the molar value. In brackets after ≈: the same amount, converted by molar mass.
4'-phosphopantetheinyl transferase PptT: 4'-phosphopantetheinyl transferase PptT (Mycobacterium tuberculosis, UniProt O33336)
Sequence of UniProt O33336 (whole entry, looked up): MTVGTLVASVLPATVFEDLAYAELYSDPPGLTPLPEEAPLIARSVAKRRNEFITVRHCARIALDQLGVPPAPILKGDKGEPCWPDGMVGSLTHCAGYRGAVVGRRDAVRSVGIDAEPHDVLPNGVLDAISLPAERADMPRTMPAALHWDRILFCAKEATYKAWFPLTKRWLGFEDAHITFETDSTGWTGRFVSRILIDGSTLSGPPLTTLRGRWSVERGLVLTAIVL
Sequence of UniProt Q86Y07 (whole entry, looked up): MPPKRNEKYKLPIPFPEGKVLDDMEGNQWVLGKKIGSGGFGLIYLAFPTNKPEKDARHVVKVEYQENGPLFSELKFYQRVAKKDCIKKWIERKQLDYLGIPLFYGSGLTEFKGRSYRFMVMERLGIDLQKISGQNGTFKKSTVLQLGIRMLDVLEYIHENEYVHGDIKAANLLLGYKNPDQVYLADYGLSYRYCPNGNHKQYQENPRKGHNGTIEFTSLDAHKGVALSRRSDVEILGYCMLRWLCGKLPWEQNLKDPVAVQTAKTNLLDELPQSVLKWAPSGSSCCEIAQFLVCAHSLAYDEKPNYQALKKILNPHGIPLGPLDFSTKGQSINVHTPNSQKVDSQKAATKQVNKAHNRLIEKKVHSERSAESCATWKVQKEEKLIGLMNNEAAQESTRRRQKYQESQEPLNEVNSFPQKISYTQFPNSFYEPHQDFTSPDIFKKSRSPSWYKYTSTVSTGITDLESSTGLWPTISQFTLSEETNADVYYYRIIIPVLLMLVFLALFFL
Sequence of UniProt Q2M2I8 (whole entry, looked up): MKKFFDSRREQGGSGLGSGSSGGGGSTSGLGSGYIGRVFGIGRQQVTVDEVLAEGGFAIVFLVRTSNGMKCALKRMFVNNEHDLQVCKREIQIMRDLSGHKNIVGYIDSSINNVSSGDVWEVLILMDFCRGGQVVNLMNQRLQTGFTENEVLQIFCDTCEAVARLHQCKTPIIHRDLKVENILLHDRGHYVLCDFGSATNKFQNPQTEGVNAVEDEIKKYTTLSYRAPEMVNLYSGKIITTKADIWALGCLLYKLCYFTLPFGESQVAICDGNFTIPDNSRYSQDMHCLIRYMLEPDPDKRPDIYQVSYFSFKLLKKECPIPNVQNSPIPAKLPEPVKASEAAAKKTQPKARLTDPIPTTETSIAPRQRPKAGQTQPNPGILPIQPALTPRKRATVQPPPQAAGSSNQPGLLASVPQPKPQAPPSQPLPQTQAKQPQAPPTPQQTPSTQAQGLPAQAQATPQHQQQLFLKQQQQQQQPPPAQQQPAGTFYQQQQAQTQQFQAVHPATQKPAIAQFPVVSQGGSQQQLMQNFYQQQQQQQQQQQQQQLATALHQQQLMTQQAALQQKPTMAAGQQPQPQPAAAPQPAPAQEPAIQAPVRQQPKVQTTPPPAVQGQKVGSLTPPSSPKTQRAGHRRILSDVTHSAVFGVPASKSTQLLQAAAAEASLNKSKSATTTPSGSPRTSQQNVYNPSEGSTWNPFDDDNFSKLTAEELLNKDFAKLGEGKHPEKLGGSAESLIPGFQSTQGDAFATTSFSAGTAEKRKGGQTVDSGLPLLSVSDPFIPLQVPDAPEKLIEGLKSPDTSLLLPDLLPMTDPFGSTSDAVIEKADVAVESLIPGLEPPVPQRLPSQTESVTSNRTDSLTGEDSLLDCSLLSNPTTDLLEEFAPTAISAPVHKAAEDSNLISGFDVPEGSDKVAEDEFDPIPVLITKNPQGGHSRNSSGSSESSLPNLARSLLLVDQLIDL
Sequence of UniProt Q9BUB5 (whole entry, looked up): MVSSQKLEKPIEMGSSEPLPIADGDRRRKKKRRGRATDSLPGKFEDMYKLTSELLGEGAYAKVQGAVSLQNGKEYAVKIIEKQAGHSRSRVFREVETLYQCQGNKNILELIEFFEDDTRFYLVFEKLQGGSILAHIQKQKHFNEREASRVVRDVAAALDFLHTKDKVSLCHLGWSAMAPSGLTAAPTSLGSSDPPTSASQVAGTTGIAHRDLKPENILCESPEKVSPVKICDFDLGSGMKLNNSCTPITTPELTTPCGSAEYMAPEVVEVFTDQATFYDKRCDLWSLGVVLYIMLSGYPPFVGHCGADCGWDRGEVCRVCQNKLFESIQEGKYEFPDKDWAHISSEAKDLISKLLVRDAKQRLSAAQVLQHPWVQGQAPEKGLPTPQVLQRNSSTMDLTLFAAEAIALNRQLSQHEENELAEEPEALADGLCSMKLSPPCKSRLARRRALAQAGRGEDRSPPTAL
Sequence of UniProt Q12852 (whole entry, looked up): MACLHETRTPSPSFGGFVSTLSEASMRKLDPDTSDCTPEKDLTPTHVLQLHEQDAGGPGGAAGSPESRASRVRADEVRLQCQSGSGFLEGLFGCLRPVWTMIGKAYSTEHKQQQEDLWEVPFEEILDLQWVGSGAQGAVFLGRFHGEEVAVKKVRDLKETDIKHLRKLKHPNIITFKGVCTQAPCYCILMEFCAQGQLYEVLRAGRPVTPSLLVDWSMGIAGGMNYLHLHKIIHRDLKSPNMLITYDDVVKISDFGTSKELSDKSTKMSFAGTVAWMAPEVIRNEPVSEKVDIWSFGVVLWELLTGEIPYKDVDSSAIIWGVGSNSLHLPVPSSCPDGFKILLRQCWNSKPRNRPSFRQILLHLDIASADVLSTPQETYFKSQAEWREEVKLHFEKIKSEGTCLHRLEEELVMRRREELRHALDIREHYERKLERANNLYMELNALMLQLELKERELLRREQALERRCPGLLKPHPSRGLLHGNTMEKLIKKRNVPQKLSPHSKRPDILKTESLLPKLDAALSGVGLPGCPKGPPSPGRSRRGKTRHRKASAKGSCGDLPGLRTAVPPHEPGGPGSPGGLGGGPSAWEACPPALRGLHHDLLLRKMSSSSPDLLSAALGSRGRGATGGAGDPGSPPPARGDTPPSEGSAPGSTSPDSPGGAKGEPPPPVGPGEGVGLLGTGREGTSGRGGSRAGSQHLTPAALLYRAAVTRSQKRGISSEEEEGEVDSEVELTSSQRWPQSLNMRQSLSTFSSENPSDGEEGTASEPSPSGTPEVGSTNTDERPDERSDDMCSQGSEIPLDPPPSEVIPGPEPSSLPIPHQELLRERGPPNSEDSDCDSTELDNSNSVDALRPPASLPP

Structure (SMILES)	tested on	test	test system	conditions	endpoint	value
Nc1ncc(-c2nc(N3CCOCC3)nc(N3CCOCC3)n2)c(C(F)F)n1	VRK2 (Homo sapiens, UniProt Q86Y07)	binding, competition with immobilised ligand		10 µM	remaining binding	64%
COC(=O)c1cc(-c2cccc(NC(=O)Nc3cccc(C#N)c3)c2)on1	Mycobacteroides abscessus	microbial growth, broth dilution	ATCC19977	48 h	MIC	> 64 µg/mL
C[C@@H](O)[C@@H]1NC(=O)[C@H](Cc2ccccc2)NC(=O)[C@@H](Cc2ccccc2)NC(=O)[C@H]([C@@H](C)O)NC(=O)[C@@H](CCCN)NC(=O)[C@H](CCCN)NC(=O)[C@@H](CCCCN)NC1=O	Balamuthia mandrillaris	parasite growth, ATP luminescence			IC50	> 16 µg/mL
C#Cc1ccc(C=NNC(=O)c2ccc(COCC)cc2)c(O)c1	Aspergillus fumigatus	microbial growth		48 h, pH 6.5	MIC80	4 µg/mL (≈ 12.4 µM)
O=c1c2c(Cl)cccc2[nH]c(=S)n1Cc1cccnc1	4'-phosphopantetheinyl transferase PptT	enzyme activity, inhibitor, FP			pIC50	6.37
C[N+]1=C2C=C(N)C(=O)c3[nH]cc(c32)CC1	Babesia divergens	parasite growth, SYBR Green		60 h, blood stage	pIC50	6.73
Cc1nn(C)cc1-c1nc2c(N3CCN(Cc4ccc(Cl)cc4)CC3)c(Cl)cnc2[nH]1	MAP3K12 (Homo sapiens, UniProt Q12852)	binding, competition with immobilised ligand		1 µM	remaining binding	81%
O=C(NNc1cc(F)ccc1F)c1nnc(CC23CC4CC(CC(C4)C2)C3)o1	Fusarium oxysporum	microbial growth			EC50	6.83 µg/mL
CC(C)[C@H]1NC(=O)[C@H](Cc2ccccc2)NC(=O)[C@@H](Cc2c[nH]c3ccccc23)NC(=O)[C@H](CCCNC(=N)N)NC(=O)[C@@H](CCCN)NC(=O)[C@H](CC(N)=O)NC1=O	Balamuthia mandrillaris	parasite growth, ATP luminescence			IC50	> 16 µg/mL
Nc1ncnc2c([C@@H]3N[C@H](CO)[C@@H](O)[C@H]3O)c[nH]c12	human respiratory syncytial virus	viral replication, inhibitor	MA104	2.8 µM	inhibition	2%
C[N+]1=C2C=C(N/C=C/c3ccc(O)cc3)C(=O)c3[nH]cc(c32)CC1	Babesia divergens	parasite growth, SYBR Green		60 h, blood stage	pIC50	7.25
N=C(N)c1ccc(OCCCCCOc2ccc(C(=N)N)cc2)cc1	Leishmania donovani	parasite growth		amastigote	IC50	5 µg/mL
C#Cc1cccc(C(=O)NN=Cc2cc(C#C)ccc2O)c1	Aspergillus fumigatus	microbial growth		48 h, pH 6.5	MIC80	4 µg/mL (≈ 13.9 µM)
COc1c([N+](=O)[O-])oc2ccc3ccccc3c12	Mycolicibacterium smegmatis	microbial growth, resazurin	MC^2155		MIC90	> 32 µg/mL
CC(C)[C@@H]1NC(=O)[C@@H](Cc2ccccc2)NC(=O)[C@H](Cc2ccccc2)NC(=O)[C@@H]([C@H](C)O)NC(=O)[C@@H](CCCNC(=N)N)NC1=O	Balamuthia mandrillaris	parasite growth, ATP luminescence			IC90	> 16 µg/mL
O=c1ccc2nc3ccc(OCc4ccc([N+](=O)[O-])o4)cc3oc-2c1	Acinetobacter baumannii	microbial growth		24 h	MIC	> 32 µg/mL
C#Cc1ccc(C(=O)NN=Cc2cc(C#C)ccc2O)cc1	Aspergillus fumigatus	microbial growth		48 h, pH 6.5	MIC80	> 32 µg/mL
COC(=O)c1cc(-c2cccc(NC(=O)Nc3ccccc3F)c2)on1	Acinetobacter baumannii	microbial growth, broth dilution	BAA1605		MIC	> 64 µg/mL
[2H]c1c([2H])c([C@]2([2H])CCCN2C(=O)C(C)(C)Oc2ccc3cn[nH]c3c2)c([2H])c([2H])c1C([2H])([2H])[2H]	MKNK1 (Homo sapiens, UniProt Q9BUB5)	binding, competition with immobilised ligand		1 µM	remaining binding	100%
O=C(NNc1ccc(Cl)cc1)c1nnc(C23CC4CC(CC(C4)C2)C3)o1	Sclerotinia sclerotiorum	microbial growth		50 µg/mL	inhibition	100%
CC(C)[C@@H]1NC(=O)[C@@H](CCCNC(=N)N)NC(=O)[C@H]([C@@H](C)O)NC(=O)[C@@H](CCN)NC(=O)[C@H](Cc2ccccc2)NC(=O)[C@@H](Cc2ccccc2)NC1=O	Balamuthia mandrillaris	parasite growth, ATP luminescence			pIC50	5.03
Oc1c(Cl)cc(Cl)cc1-c1[nH]c(Cl)c(Cl)c1Cl	Klebsiella aerogenes	microbial growth	ATCC35029		MIC	10.7 µM
COC(=O)c1cc(-c2cccc(NC(=S)Nc3ccc(OC)cc3)c2)on1	Mycobacteroides abscessus	microbial growth, broth dilution	ATCC19977	48 h	MIC	> 64 µg/mL
CC(C)[C@@H]1NC(=O)[C@@H](Cc2ccccc2)NC(=O)[C@H](CCCNC(=N)N)NC(=O)[C@@H]([C@H](C)O)NC(=O)[C@H](CC(N)=O)NC(=O)[C@@H](C(C)C)NC1=O	Balamuthia mandrillaris	parasite growth, ATP luminescence			IC90	> 16 µg/mL
N.N.[Cl][Pt][Cl]	K562	cell growth or viability, ATP luminescence		72 h	pIC50	5.08

Structure (SMILES)	tested on	test	test system	conditions	endpoint	value
C#Cc1ccc(C=NNC(=O)c2ccc(COCCC)cc2)c(O)c1	Aspergillus fumigatus	microbial growth		48 h, pH 6.5	MIC80	> 16 µg/mL
CO/C=C(/C(=O)OC)c1ccccc1Oc1cc(Oc2ccccc2C#N)ncn1	Fusarium oxysporum	microbial growth			EC50	> 50 µg/mL
NCCCC[C@@H]1NC(=O)[C@@H](CCCN)NC(=O)[C@@H](Cc2ccccc2)NC(=O)[C@H](Cc2ccccc2)NC(=O)CNC1=O	Balamuthia mandrillaris	parasite growth, ATP luminescence			IC50	> 16 µg/mL
COc1ncccc1-c1cnn2ccc(N3CCN(C(=O)OC(C)C)CC3)nc12	AAK1 (Homo sapiens, UniProt Q2M2I8)	binding, competition with immobilised ligand		1 µM	remaining binding	2.1%
O=C(NNc1ccc(Cl)c(Cl)c1)c1nnc(C23CC4CC(CC(C4)C2)C3)o1	Fusarium oxysporum	microbial growth		50 µg/mL	inhibition	70.9%
C[C@@H](O)[C@@H]1NC(=O)[C@H](Cc2ccccc2)NC(=O)[C@@H](Cc2ccccc2)NC(=O)[C@H](Cc2ccccc2)NC(=O)[C@@H](CCCN)NC(=O)[C@H](CCCCN)NC(=O)[C@@H](CCCCN)NC1=O	Balamuthia mandrillaris	parasite growth, ATP luminescence			IC50	> 16 µg/mL
O=c1cc(CSc2ccc(N=Cc3cccc(Cl)c3)cc2)occ1O		ABTS scavenging, absorbance			pIC50	4.11
O=C(NNc1ccc(Cl)c(Cl)c1)c1nnc(CC23CC4CC(CC(C4)C2)C3)o1	Fusarium oxysporum	microbial growth		50 µg/mL	inhibition	40.9%
COC(=O)c1cc(-c2cccc(NC(=S)Nc3cc(C(F)(F)F)cc(C(F)(F)F)c3)c2)on1	Mycobacteroides abscessus	microbial growth, broth dilution	ATCC19977	48 h	MIC	> 64 µg/mL
Oc1c(Br)cc(Br)cc1-c1[nH]c(Br)c(Br)c1Br	Shigella sonnei	microbial growth	ATCC25931		MIC	16 µM
C#Cc1ccc(O)c(C=NNC(=O)c2ccc(Br)c(Br)c2)c1	Aspergillus fumigatus	microbial growth		48 h, pH 6.5	MIC80	2 µg/mL (≈ 4.74 µM)
COC(=O)c1cc(-c2cccc(NC(=O)Nc3ccc(C(F)(F)F)cc3)c2)on1	Mycobacteroides abscessus	microbial growth, broth dilution	ATCC19977	48 h	MIC	> 64 µg/mL
C#Cc1ccc(C=NNC(=O)c2ccc(Br)cc2Br)c(O)c1	Aspergillus fumigatus	microbial growth		48 h, pH 6.5	MIC80	≤ 0.5 µg/mL
O=C(NNc1ccc(F)c(F)c1)c1nnc(CC23CC4CC(CC(C4)C2)C3)o1	Sclerotinia sclerotiorum	microbial growth		50 µg/mL	inhibition	100%
NCCCC[C@H]1NC(=O)[C@H](CO)NC(=O)[C@H](Cc2ccccc2)NC(=O)[C@@H](Cc2ccccc2)NC(=O)[C@H](Cc2c[nH]c3ccccc23)NC(=O)[C@@H](CCCN)NC(=O)[C@H](CCCN)NC1=O	Balamuthia mandrillaris	parasite growth, ATP luminescence			IC90	> 16 µg/mL
COC(=O)c1cc(-c2cccc(NC(=O)Nc3ccccc3)c2)on1	Mycobacteroides abscessus	microbial growth, broth dilution	ATCC19977	48 h	MIC	> 64 µg/mL
O=c1c2cc(Cl)ccc2[nH]c(=S)n1Cc1cncnc1	4'-phosphopantetheinyl transferase PptT	enzyme activity, inhibitor, FP			pIC50	6.21
O=C(NNc1ccc(F)c(F)c1)c1nnc(C23CC4CC(CC(C4)C2)C3)o1	Sclerotinia sclerotiorum	microbial growth		50 µg/mL	inhibition	100%
COC(=O)c1cc(-c2cccc(NC(=O)Nc3cc(OC)ccc3OC)c2)on1	Mycobacteroides abscessus	microbial growth, broth dilution	ATCC19977	48 h	MIC	> 64 µg/mL
Cc1ccc(NNC(=O)c2nnc(CC34CC5CC(CC(C5)C3)C4)o2)cc1	Sclerotinia sclerotiorum	microbial growth		50 µg/mL	inhibition	73%
C#Cc1ccc(O)c(C=NNC(=O)c2ccc(C3(C(F)(F)F)N=N3)cc2)c1	Aspergillus fumigatus	microbial growth		48 h, pH 6.5	MIC80	≤ 0.25 µg/mL
CC(=O)N1CCN(c2ccc(OCC3COC(Cn4ccnc4)(c4ccc(Cl)cc4Cl)O3)cc2)CC1 (centres unmarked)	Candida albicans	microbial killing, broth dilution	SP3903	48 h	MFC	> 64 µM
Cc1noc(C)c1CC(=O)N1CCOc2c(O)cc(Br)cc2C1	Leishmania mexicana	parasite growth		intracellular, amastigote	pEC50	< 4.82
COC(=O)c1cc(-c2cccc(NC(=S)Nc3ccc(F)c(Cl)c3)c2)on1	Acinetobacter baumannii	microbial growth, broth dilution	BAA1605		MIC	> 64 µg/mL
C[C@@H]1[C@H](O)[C@@H](C)/C=C/C=C/C=C/C=C/C=C/C=C/C=C/[C@H](O[C@@H]2O[C@H](C)[C@@H](O)[C@H](N)[C@@H]2O)C[C@@H]2O[C@](O)(C[C@@H](O)C[C@@H](O)[C@H](O)CC[C@@H](O)C[C@@H](O)CC(=O)O[C@H]1C)C[C@H](O)[C@H]2C(=O)O	Leishmania donovani	parasite growth, resazurin		72 h, promastigote	IC90	0.33 µg/mL (≈ 0.357 µM)

Repeated from above:
Structure (SMILES)	tested on	test	test system	conditions	endpoint	value
COC(=O)c1cc(-c2cccc(NC(=O)Nc3ccc(C(F)(F)F)cc3)c2)on1	Mycobacteroides abscessus	microbial growth, broth dilution	ATCC19977	48 h	MIC	> 64 µg/mL
C#Cc1ccc(C=NNC(=O)c2ccc(COCCC)cc2)c(O)c1	Aspergillus fumigatus	microbial growth		48 h, pH 6.5	MIC80	> 16 µg/mL
C#Cc1ccc(C=NNC(=O)c2ccc(Br)cc2Br)c(O)c1	Aspergillus fumigatus	microbial growth		48 h, pH 6.5	MIC80	≤ 0.5 µg/mL
C[C@@H](O)[C@@H]1NC(=O)[C@H](Cc2ccccc2)NC(=O)[C@@H](Cc2ccccc2)NC(=O)[C@H](Cc2ccccc2)NC(=O)[C@@H](CCCN)NC(=O)[C@H](CCCCN)NC(=O)[C@@H](CCCCN)NC1=O	Balamuthia mandrillaris	parasite growth, ATP luminescence			IC50	> 16 µg/mL
N=C(N)c1ccc(OCCCCCOc2ccc(C(=N)N)cc2)cc1	Leishmania donovani	parasite growth		amastigote	IC50	5 µg/mL
